Assay results collected from several papers.
A part holds a random share of what one study measured.

Series 1
Target: Histone acetyltransferase KAT6A, both winged helices, GST fusion (KAT6A, Homo sapiens, UniProt Q92794, residues 1-181)
Technique: protein binding microarray
Molecule type: double-stranded DNA, one strand shown
Medium: in vitro
Tested at: not given
Setting: 8-mer, flanks averaged, mean of 2 arrays, mostly near background
Relative to: not given
Direction: higher = stronger binding
Measurement: E-score
Target sequence (chain): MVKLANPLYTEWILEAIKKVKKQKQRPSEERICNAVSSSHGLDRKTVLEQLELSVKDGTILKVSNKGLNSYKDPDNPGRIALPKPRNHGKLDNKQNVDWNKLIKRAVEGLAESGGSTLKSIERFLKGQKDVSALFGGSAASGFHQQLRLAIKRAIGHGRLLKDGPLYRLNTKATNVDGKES
ACCGCCTC: 0.185
AGATGGAA: -0.107
CCTTAGCC: 0.05
AAAGGTCT: -0.151
ATACAAGG: -0.0997
TCTTAGCA: -0.129
ACCGCAGC: 0.132
CTCGGCAG: 0.103
CTCCAGCA: -0.211
AGATGTAA: -0.0512
ATGAAGCG: 0.11
ATCTTTTG: 0.00639
TCAGCGCA: 0.189
AAGTATAC: -0.0271
AAGAGTGG: -0.0602
ATCTAGAA: -0.0612
AAGCCACA: -0.0857

Series 2
Target: Interferon regulatory factor 7, full length, phosphomimetic (IRF7, Homo sapiens, UniProt Q92985, residues 1-503, S101K/S471D/S472D/S475D/S476D/S477D/S483D/S484D/S487D)
Technique: protein-binding microarray
Molecule type: double-stranded DNA, one strand shown
Medium: in vitro
Tested at: 250 nM
Setting: 60-bp whole probe
Together with: salmon DNA 0.4 mg/ml
Relative to: random background probes
Direction: higher = stronger binding
Measurement: log fluorescence
Shared flanks, not repeated: GCCTAGCAC … GTCTTGATTCGCTTGACGCTGCTG
Construct (chain): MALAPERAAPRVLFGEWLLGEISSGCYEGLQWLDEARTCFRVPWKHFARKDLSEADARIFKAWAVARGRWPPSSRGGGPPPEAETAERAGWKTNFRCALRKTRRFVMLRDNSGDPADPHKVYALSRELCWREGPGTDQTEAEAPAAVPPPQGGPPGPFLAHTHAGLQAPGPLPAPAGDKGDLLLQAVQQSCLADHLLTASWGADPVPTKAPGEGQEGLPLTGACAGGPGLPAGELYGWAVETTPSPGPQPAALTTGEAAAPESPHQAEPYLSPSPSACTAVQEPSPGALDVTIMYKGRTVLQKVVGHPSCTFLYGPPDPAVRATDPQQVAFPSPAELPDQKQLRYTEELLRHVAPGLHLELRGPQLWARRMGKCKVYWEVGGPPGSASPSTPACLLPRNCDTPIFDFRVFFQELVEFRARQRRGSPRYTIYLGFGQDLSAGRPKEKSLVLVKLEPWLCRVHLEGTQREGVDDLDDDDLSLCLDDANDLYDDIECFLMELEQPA
TCAACTTCCCAATTGTCACTGTGCTAG: 1.24 z-score
TTAGTTTCCAGTTTCGATTAGTGCTAG: 12.9 z-score
GACGGTTTCCTTCACCTGACGTGCTAG: 1.15 z-score
TTGGGTCTCCTTCTCCTTTAGTGCTAG: 0.16 z-score
GACGCACTGGGGACTGGAGACGTGCTA: -0.182 z-score
GAGGATATCGGGACTGGAGACGTGCTA: -0.395 z-score
GACGGTCTCGGTACCGGGACGTGCTAG: 0.53 z-score
TTAGAACTGCGGTATCGATTAGTGCTA: 0.251 z-score
TTAGTTATCGGTATCGGTTAGTGCTAG: 2.04 z-score
TTACGACTGGGGTATCGGTTAGTGCTA: 0.101 z-score
TCAGATTTCCATTATTGACTGTGCTAG: 1.01 z-score
GACGGACTGGGGTTTAGGGACGTGCTA: -0.911 z-score
GACGGTTTCCGTTCCGGGACGTGCTAG: 5.14 z-score
GACGGTTTCGGATTCGGGACGTGCTAG: 11.1 z-score
TCATCTCTGGGTCGGGCACTGTGCTAG: 0.216 z-score
GACGGTCTCCTTATCCCGACGTGCTAG: 0.422 z-score
AGACATTCTTTCAGTTGGAAGTGCTAG: 0.409 z-score
TTAGGTTTCGGTTTGGGTTAGTGCTAG: 14.3 z-score
CACGGACTGGGTTTCGGGACGTGCTAG: 1.56 z-score

Series 3
Target: Ras GTPase-activating protein-binding protein 1, C-terminal RGG region (G3BP1, Homo sapiens, UniProt Q13283)
Sequence of UniProt Q13283 (whole entry, looked up): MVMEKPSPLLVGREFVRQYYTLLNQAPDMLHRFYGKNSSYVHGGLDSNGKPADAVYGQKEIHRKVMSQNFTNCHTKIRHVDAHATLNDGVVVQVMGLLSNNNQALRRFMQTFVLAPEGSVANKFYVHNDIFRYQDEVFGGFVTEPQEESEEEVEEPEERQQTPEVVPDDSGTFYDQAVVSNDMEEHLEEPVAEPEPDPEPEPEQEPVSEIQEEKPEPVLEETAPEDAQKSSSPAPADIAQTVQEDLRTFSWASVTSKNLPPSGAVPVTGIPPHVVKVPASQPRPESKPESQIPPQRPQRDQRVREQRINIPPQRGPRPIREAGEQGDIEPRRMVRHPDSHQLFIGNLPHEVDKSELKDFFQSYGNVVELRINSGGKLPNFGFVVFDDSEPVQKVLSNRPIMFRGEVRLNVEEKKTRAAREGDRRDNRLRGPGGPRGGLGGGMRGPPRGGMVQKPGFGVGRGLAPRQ
Technique: RNA Bind-n-Seq
Molecule type: RNA
Medium: in vitro
Tested at: 1 µM
Setting: whole 134-nt RNA, ends assumed
Together with: 150 mM KCl
Relative to: input library
Direction: higher = stronger binding
Measurement: log2 enrichment
Shared flanks, not repeated: GGGAGUUCUACAGUCCGACGAUC … UGGAAUUCUCGGGUGUCAAGG
UGCCAGGCCCACCCCCAGGUGUUCCCGCGCCUGGGGGCCCACCCCUGUCCACCGGACCUAUAGUGGACCUGCUCCAGUACAGCCAGAAGG: -0.134
UCCUGUGCUACACAUCGUAUGUACCGAAUCGGGGUUUUUUUGGGGUUUUUGGGGUGGGGAAAGUAUUAUGUUACGCCGUUCGGAUCUGCA: 0.978
CACAGACAUCACGCACCCACACAGACACAGAGGGAAGGGGUUGGGAUGGGGACAGGGUGCACAGCAGGGCGGGGUAGGACCCCAGCCCCU: -0.485
GUCCUGUGCUACACAUCGUAUGUACCGAAUCGGUUUUUGGAAAAAAAGGUUUUUUUGGAAAGUAUUAUGUUACGCCGUUCGGAUCUGCAC: -1.8
CACAGACAACACGCACCCACACAGACACAGAGGGUAGGGGUUGGGAUGGGGACAGGGUGCACAGCAGGGCGGGGUAGGACCCCAGCCCCU: -0.199
UGGCCCUGGUGGCAUGCGAGGAGGAAGAGGUGGCCUCAUGGAUCGUGGUGGUCCCGGUGGAAUGUUCAGAGGUGGCCGUGGUGGAGACAG: 1.84
UCCUGUGCUACACAUCGUAUGUACCGAAUCGGGGAAAAAGGGAAAAAGGGGAAAAAGGGAAAGUAUUAUGUUACGCCGUUCGGAUCUGCA: -0.624
CCUCAAGUCCUGUGCUACACAUCGUAUGUACCGAAUCGGUGGGUGGGGUGGGAAAGUAUUAUGUUACGCCGUUCGGAUCUGCACUUCCAG: 0.971
GUCCUGUGCUACACAUCGUAUGUACCGAAUCGGGGUUUUUUUGGGGUUUGGGGAGGGGAAAGUAUUAUGUUACGCCGUUCGGAUCUGCAC: 2.27

Series 4
Target: Sal-like protein 4, full length isoform B (SALL4, Homo sapiens, UniProt Q9UJQ4-2, residues 1-616)
Technique: universal PBM
Molecule type: double-stranded DNA, one strand shown
Medium: in vitro
Tested at: not given
Setting: 8-mer, flanks averaged, mean of replicates
Direction: higher = stronger binding
Measurement: E-score
GGGGACGA: -0.197
CCAGCAAA: 0.0399
ATACGTCC: 0.122
ATAAACAG: 0.242
CCTAGAGG: -0.212
ATACGTGA: 0.262
CTGGTACA: 0.0445
CCTGGCCG: -0.257
CAGAATAG: 0.0324
CTTTTATC: 0.126
AATCGTGC: 0.0402
GTTGCCTA: -0.0413
CAGACGTA: 0.0391
CGATCTGC: -0.229
CCCTTCTC: -0.232
ATTTAAAA: 0.301
CTTCAGCA: -0.0896
ACGCCGGA: -0.262
CCAGCCAG: -0.302
CAGAAATG: 0.098
CGGCCATC: -0.293
CGGATTTA: -0.0433
GTACCTGA: 0.0453
TAAATGGA: 0.195
TCCTCCGA: -0.257

Excerpt of the above (series 4):
CAGAAATG: 0.098
TAAATGGA: 0.195
ATAAACAG: 0.242
CTGGTACA: 0.0445
